Assay results from different studies.
Numbered parts are unrelated; each lists some results of a single study.

Block 1
Target: RING finger protein unkempt homolog, zinc fingers 1-6, GST-SBP tag (UNK, Homo sapiens, UniProt Q9C0B0, residues 30-357)
Technique: RNA Bind-n-Seq
Molecule type: RNA
Sample: in vitro
Tested at: not given
Setting: RNA with constant flanks, human and mouse sites, ends assumed
Baseline: input RNA pool
Reading: higher = stronger binding
Measurement: bound/input enrichment
Constant ends, left off below: GGGAGUUCUACAGUCCGACGAUC … CAACAGAGGAUUGAGCAUCA
Construct (chain): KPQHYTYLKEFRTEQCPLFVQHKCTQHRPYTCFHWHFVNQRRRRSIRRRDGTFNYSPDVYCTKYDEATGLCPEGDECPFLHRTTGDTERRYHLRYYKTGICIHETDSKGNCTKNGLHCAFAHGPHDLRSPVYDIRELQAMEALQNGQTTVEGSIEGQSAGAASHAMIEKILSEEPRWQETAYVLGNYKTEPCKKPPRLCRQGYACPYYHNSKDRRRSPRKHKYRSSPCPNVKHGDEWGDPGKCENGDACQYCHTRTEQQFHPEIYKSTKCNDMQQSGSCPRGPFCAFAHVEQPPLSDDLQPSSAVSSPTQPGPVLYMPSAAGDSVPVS
Sequence = GUGAGGCUUUCAGUCAGCUCUAAGGGAAGCGUCAGCACUCCCAACUCCCCCGUGAAGAUGACCCUGAUCCCCAGCCCAAACUCACCCUUCCAGAAAGUGGGGAAACUGGCAAGCUCAGAC; value = 0.283 ratio
Sequence = AGAUUAGGCCAUGAUCCCUACAGACUAACUCCUGAUCCCUAUAGGAUGUCACCUAGACCCUACAGGAUAGCACCCAGGUCCUAUAGAAUAGCACCCAGGCCAUAUAGGUUAGCACCUAGA; value = 5.99 ratio
Sequence = CUGUCACACUCCAAGGGCCACCAGAAGCGCAAGGCCCUCAAGACCACAGUCAUCCUCAUCCUGGCUUUCUUCGCCUGUUGGCUGCCUUACUACAUUGGGAUCAGCAUCGACUCCUUCAUC; value = 0.144 ratio
Sequence = GUGAACGCCUUCAGUCAUGCUAUGGAAUUUGUGUAUCCUCAUUACUGUAUCAUUUGUGGGGUACACCCCUCCCCUCUUUUUUAAAUUAAAUACAGCUCAUUCUUACUGUGGCUUGUAGCA; value = 2.4 ratio
Sequence = GGACGCGCAGACACGUUGUCUCUUCCUUCUUUUUGCCCCCUUUCCCCUGCUCAGGGCCUCGCUGGGAGGCGAGUGCUCCUCCUCAGGCCGCGGCUUCCAGAAGUAGCCUCGGAGUCCCGG; value = 0.498 ratio
Sequence = GAGCCUUCUGAGGACAUUCCAAGACAGUAUACAGUCCUGUGGUCUCCUUGGAAAUCCGUCUAGUUAACAUUUCAAGGGCAAUACCGUGUUGGUUUUGACUGGAUAUUCAUAUAAACUUUU; value = 1.21 ratio
Sequence = GCCAUCACGACACUGCAUAAUCUCCUGCUCCAUCAGGAAGGAGCUAAAAUGGCAGUGCGCCUAGCUGGUGGACUGCAGAAAAUGGUUGCUUUGCUCAACAAAACAAACGUGAAAUUCUUG; value = 0.0568 ratio
Sequence = UUGCCAUAUUAAUCAUCUUAGUUCCAUACACACUGAGACUUUAAAAGGGAAAAACCACUCUAGCAAAUAAUUGUCAAUUAUAAACCUGUAUGUAAAACAUUCUUGAAAACCUAGAGUUGG; value = 1.12 ratio
Sequence = AGAGAACAACACAUCCGGAGAGACAAAGCCACCAGCAACAUCUGCACGGCUCAGGCCCUUUUAGCCAACAUGGCUGCCAUGUUCGCCAUUUACCAUGGAUCCCAGGGGCUGAAGCACAUU; value = 0.255 ratio
Sequence = GCCUCUUGCCUUUUUUUUUAAUUUUAAAUUAUCUAAAUUUAUUGUUUGUUAUGGUGUCAAUAGCAGUGUUUUUCUAUCAGUUUUGUCACUCCUCCUACCCCACCUUGGACUCGUUUGAGA; value = 9.49 ratio
Sequence = CUGGCAGGGGCUGCUGAGGAGGAGGAGAGCGGGCUGCCCGGGGCCGGGCCUGGCUCCUGUGCUUUUGGGGAGGAGAUUCCCAUGGAUGGGGAGCCUCCUGCCUCCUCGGGCCUGGGGCUC; value = 0.275 ratio

Block 2
Target: Interferon regulatory factor 7, full length, phosphomimetic (IRF7, Homo sapiens, UniProt Q92985, residues 1-503, S101K/S471D/S472D/S475D/S476D/S477D/S483D/S484D/S487D)
Technique: protein-binding microarray
Molecule type: double-stranded DNA, one strand shown
Sample: in vitro
Tested at: 250 nM
Setting: 60-bp whole probe
Added: salmon DNA 0.4 mg/ml
Baseline: random background probes
Reading: higher = stronger binding
Measurement: log fluorescence
Constant ends, left off below: GCCTAGCAC … GTCTTGATTCGCTTGACGCTGCTG
Target sequence (chain): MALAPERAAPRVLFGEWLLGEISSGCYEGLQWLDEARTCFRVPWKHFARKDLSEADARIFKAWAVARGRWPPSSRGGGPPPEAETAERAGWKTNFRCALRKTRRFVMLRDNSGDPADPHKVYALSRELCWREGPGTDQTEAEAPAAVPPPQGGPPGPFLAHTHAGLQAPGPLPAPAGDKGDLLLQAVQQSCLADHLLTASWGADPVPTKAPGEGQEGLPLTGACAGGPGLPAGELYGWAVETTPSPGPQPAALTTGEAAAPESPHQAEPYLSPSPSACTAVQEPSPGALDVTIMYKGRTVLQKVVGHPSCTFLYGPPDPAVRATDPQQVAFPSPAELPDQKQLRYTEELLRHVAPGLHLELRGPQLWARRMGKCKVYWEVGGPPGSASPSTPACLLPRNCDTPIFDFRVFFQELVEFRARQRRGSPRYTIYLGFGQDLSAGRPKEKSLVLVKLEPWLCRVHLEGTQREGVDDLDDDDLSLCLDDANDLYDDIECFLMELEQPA
Sequence = TATGCTTTCTTTAACTCATTGTGCTAG; value = 0.337 z-score
Sequence = TTAGGTATCGGGACAGGGTTAGTGCTA; value = -0.119 z-score
Sequence = TTACGTATCGGACTGGGTTAGTGCTAG; value = 0.153 z-score
Sequence = GACGGTTTCCTACTCCTGACGTGCTAG; value = 1.96 z-score
Sequence = TTAGGTCTCGGTTTCGGTTGGTGCTAG; value = 11.1 z-score
Sequence = GACGGACTGGGTCTCGGGCCGTGCTAG; value = -0.568 z-score
Sequence = TTAGGACTGAGGTATCGGTTAGTGCTA; value = 0.797 z-score
Sequence = GGCGATATCAGTTTCGAGACGTGCTAG; value = 3.52 z-score
Sequence = TCAAAAAATGATTGGTTACTGTGCTAG; value = 0.186 z-score
Sequence = TTAGTTTTCCTTATCCTTTAGTGCTAG; value = 2.54 z-score
Sequence = TCAACTGTGTGTTTGAGACTGTGCTAG; value = -0.543 z-score
Sequence = ATCATTTTCGTTTTTATTATGTGCTAG; value = 7.72 z-score
Sequence = GTCGATATCAGTCTCGAGACGTGCTAG; value = 0.981 z-score
Sequence = GGGCTTTCCCAGCCTGGGGCTGTGCTA; value = 1.29 z-score
Sequence = TTTTCATTATTGTCTCCCCCAGTGCTA; value = 1.32 z-score
Sequence = TTTTTTCTACTTCTCTTTTGGTGCTAG; value = 4.57 z-score
Sequence = TTAGATTCCAGTTTCGCTTAGTGCTAG; value = 8.31 z-score
Sequence = TCAGGACTGGGACTGGGTTAGTGCTAG; value = -0.186 z-score
Sequence = CACGGTTTCCTTCTCCTGACGTGCTAG; value = 2.44 z-score
Sequence = GCCGGTATCGACTTTCGGGACGTGCTA; value = 1.45 z-score
Sequence = GATGATATCAGTCTCGAGACGTGCTAG; value = 0.268 z-score
Sequence = TACGAACTGGGGACTGGAGACGTGCTA; value = -0.563 z-score
Sequence = GACGATCTCAGTTTCGAGGCGTGCTAG; value = 2.21 z-score
Sequence = GACGGTATCGGTCTCAGGACGTGCTAG; value = 0.693 z-score
Sequence = GACGATATCAGTTTCGCGACGTGCTAG; value = 1.14 z-score

Block 3
Target: Fragile X messenger ribonucleoprotein 1, C-terminal low-complexity region (Fmr1, Mus musculus, UniProt P35922)
Technique: RNA Bind-n-Seq
Molecule type: RNA
Sample: in vitro
Tested at: 200 nM
Setting: whole 134-nt RNA, ends assumed
Added: 150 mM KCl
Baseline: input library
Reading: higher = stronger binding
Measurement: log2 enrichment
Constant ends, left off below: GGGAGUUCUACAGUCCGACGAUC … UGGAAUUCUCGGGUGUCAAGG
Sequence = AGUCCUGUGCUACACAUCGUAUGUACCGAAUCGGGGCCCCGGGGCCCCGGCCCCGGGGAAAGUAUUAUGUUACGCCGUUCGGAUCUGCAC; value = -1.48
Sequence = AAGUCCUGUGCUACACAUCGUAUGUACCGAAUCGGGAAAAAGGGAAAGGGAAAGGGAAAGUAUUAUGUUACGCCGUUCGGAUCUGCACUU; value = 0.143
Sequence = UCAAGUCCUGUGCUACACAUCGUAUGUACCGAAUCGGGUUUGGUUUGGGUUUGGAAAGUAUUAUGUUACGCCGUUCGGAUCUGCACUUCC; value = -0.364
Sequence = CCUGUGCUACACAUCGUAUGUACCGAAUCGGGGAAAAAAAGGGAAAAAAAGGAAAAAAAGGAAAGUAUUAUGUUACGCCGUUCGGAUCUG; value = -0.751
Sequence = CACAGACAACACGGACCCACACAGACACAGAGGGAAGGGGUUGGGAUGGGGACAGGGUGCACAGCAGGGCGGGGUAGGACCCCAGCCCCU; value = 1.49
Sequence = UCCUGUGCUACACAUCGUAUGUACCGAAUCGGGGUUUUUGGGGUGGGGAAAAAAAGGGGAAAGUAUUAUGUUACGCCGUUCGGAUCUGCA; value = 0.736
Sequence = GCAGGAAGUAAAAACAAAUGGAAAUGCUUCGGAUAGUGGCACGGGUGGGGGUUGCUAAGGAAAGGGUGGGAUGGGAGUGGGUAAAGAGUU; value = 0.332
Sequence = ACCAUGAAAGUGGGCAUCUUUGGGAAGUGGGGCAAGGGGGGGAUAGGGAGGGGGGUAACACUUUGGGAACAGGUGGUCCCAGGUCGUUUC; value = 0.497
Sequence = CAAGUCCUGUGCUACACAUCGUAUGUACCGAAUCGGGAGGGAAAAAGGGUUUGGGAAAGUAUUAUGUUACGCCGUUCGGAUCUGCACUUC; value = 0.862
Sequence = GUCCUGUGCUACACAUCGUAUGUACCGAAUCGGCCCCCGGGCCCCCGGGCCCCCGGGGAAAGUAUUAUGUUACGCCGUUCGGAUCUGCAC; value = -0.53

Block 4
Target: Cln2 (Saccharomyces cerevisiae)
Effect on: peptide binding
Technique: competitive growth sequencing
Molecule type: peptide
Organism: Saccharomyces cerevisiae
Strain: unfused Cln2 strain
Setting: peptide tiling library
Reading: direction not given
Measurement: enrichment score
Sequence = DGCSPIKNWSPMRL; value = 0.0478
Sequence = PKNAKRNLSSEFAN; value = -0.671
Sequence = DTERAHSTLDEDLERW; value = 0.206
Sequence = PAKRRLELGE; value = 0.059
Sequence = KRNLLNEFDRII; value = 0.732
Sequence = FQDSGYNELKSCSFDN; value = 0.207
Sequence = IVLICAKRSLCAAFSV; value = -1.09
Sequence = KPHVSDEEEEEPPFYH; value = 0.853
Sequence = SMTDFYHSKRRLIFSK; value = -0.443
Sequence = SSEVARHLLFQSHM; value = -0.745
Sequence = PKRAKRKLYTSEISSP; value = -0.398
Sequence = KPKPVKPVTFSTGIKM; value = 1.7
Sequence = TARRIFQEPTEPKTKA; value = -0.888
Sequence = GLPDFVFQQQPVESEA; value = 0.837
Sequence = PARRRLRLSVDEVSSP; value = -0.425
Sequence = SAVPLILPQAPSGPSY; value = 1.11
Sequence = VLVRTSACRSLFGPVD; value = -0.926

For quick reference, copied from above (block 4):
Sequence = IVLICAKRSLCAAFSV; value = -1.09
Sequence = KPHVSDEEEEEPPFYH; value = 0.853
Sequence = SMTDFYHSKRRLIFSK; value = -0.443
Sequence = SSEVARHLLFQSHM; value = -0.745
Sequence = PKRAKRKLYTSEISSP; value = -0.398
Sequence = KPKPVKPVTFSTGIKM; value = 1.7
Sequence = TARRIFQEPTEPKTKA; value = -0.888
